Experimental data of several laboratories.
A part holds a random share of what one study measured. Substitutions count along the parent as printed.

Sample 1
Target: CCND3, cyclin fold, Cln2 fusion (human)
Technique: yeast growth competition, sequencing
Medium: yeast
Setting: weak parent motif
Reference: not given
Reading: higher = stronger binding
Starting sequence: CDKN1B docking peptide (human); PSACRNLFGPVDH
Substitution	normalised enrichment score
G9L	0.178
P10C	0.0844
P1R	0.124
V11A	0.143
N6K	0.197
P1A	0.165
P1T	0.158
P1F	0.141
P1H	0.156
C4W	0.133
G9K	0.262
C4I	0.135
P1S	0.0631
R5P	0.098
F8I	0.143
R5L	0.102
G9H	0.0772
V11Q	0.14
C4H	0.132
P1I	0.0706
N6C	0.101
F8E	0.0657
L7G	0.0998

Sample 2
Target: Hepatocyte nuclear factor 3-alpha (Foxa1, Mus musculus, UniProt P35582, residues 1-468, full length assumed)
Chain of UniProt P35582 (whole entry, looked up): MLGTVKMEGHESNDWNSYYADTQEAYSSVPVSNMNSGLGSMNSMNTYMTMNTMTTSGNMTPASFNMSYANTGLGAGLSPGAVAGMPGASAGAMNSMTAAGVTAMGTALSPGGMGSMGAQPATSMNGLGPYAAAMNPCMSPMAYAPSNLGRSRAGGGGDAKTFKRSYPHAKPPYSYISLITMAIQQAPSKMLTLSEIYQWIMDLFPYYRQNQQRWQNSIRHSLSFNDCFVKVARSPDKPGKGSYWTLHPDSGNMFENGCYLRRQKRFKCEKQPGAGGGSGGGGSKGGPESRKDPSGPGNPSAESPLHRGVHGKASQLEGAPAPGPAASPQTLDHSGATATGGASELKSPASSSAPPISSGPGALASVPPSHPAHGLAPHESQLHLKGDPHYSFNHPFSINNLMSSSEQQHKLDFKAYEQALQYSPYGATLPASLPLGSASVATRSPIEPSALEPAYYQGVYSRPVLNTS
Technique: EMSA with sequencing
Molecule type: double-stranded DNA, one strand shown
Medium: in vitro
Tested at: 10 and 20 nM
Setting: whole designed probe, mean of two concentrations, ends assumed
Reference: negative control set to 0
Reading: higher = stronger binding
All sequences stand within: GTGAGCGGTGCCCATTGATGGGGAAC … TTTCACTGGGATCGTGGGGAC
Sequence	normalised bound fraction
TTACCACATTTCTTACATGCATAGGGTTTCTCTCCAGTATGAGTTCTTTCATGTTCACGAAGATAACTTGAATAATTGAAGGCTTTATCACAATGTTTACATTTATATGTTTTCTCTCCAGTGTAAGTGCTCTGAGGCATTTGAAATACACTAGGAAAATCAAAAGGCTTCTCATACACTGGACCCTTATAAG	0.407 ratio
TGAAATTTAGGAAAAGTTAATATGAATGAGAGAAAAATAACCAAAAAGAAATAGCAATTATTCCTTACTAATGTTATTTTTCTGCCTGCAAAGTAATCTTGGTAAAAGAAATTTTTCACTTTAAGTTATGAAAGTTGACACTATTATCTATAATTTTTACATGTGCCTCTATTATATGTCCTCTAGTCTTTCA	0.00269 ratio
ATCTTCCCCCTCTTCCTTGCCCCACCAGCTCACCTTCCCGGGTTATTTGCACAAAGGAAAATAAATAAAGCCGGCATTCGTTAACGCAGTTCTGGCGCAAACTGCTGTTTGCTCTGGATCTAACATGGTCCTTTGGCGAGGCGTGGCTCCGGGAGAGCAAAGCACCGTGTCAGGGCCATGATCCGGGGTGGCC	0.37 ratio
TGAGAATTGAACAGGGTGTAAAGAACCTGGAAAGCACCTGGAACAGTGCCAGCCCATAGTAAGTACGCAGCGAGAATGAGCTATTTGTATTGTGTAATCTTGGTGGACAGTGTCTGTTATGTATCCAAAATGATTGTTGTTGGAGACTAAGAGAAAATGGATGCAGCTACAGTACTGAGGAGGCTGCAGTGTC	0.121 ratio
TTACTGACATGAAGAGCGTTGCTATAGTTTTAAGAGATTTTTTTTTTCTGATTTTAAACAAAAACTAGAATAAAAATTTTCACACTTTCAAAGTAAACAGAAAGGGGGGGATTGTGACATTTAGCACATGCAGTATGAGAATTATTGGTAAAAGAAAAGCCAAAAAAGGTTTACAACTGTCCCACGACAAAAA	0.324 ratio
CCTGTTCTGTAAAAGTGTTTGGATTGAGAGAACACGTACAAAATGACAGGATAATAGCAGGTAGATAATATTCATCTTTTTCTCCCAGGTTAATGTAAACAGGGACCTGATTTTACAAGATTTTATAGGCCATGTTTTACATACGTTGATTTTATCTTAATATGAATAAAACTTAACATATGTGGAGACATTA	0.21 ratio
TAAAACCCGGTGACTCTTTTGCACATTTAATTTGAGAACAGGTGAACTAGCTAGATGGATGTTCTCCAGGAAACACTTCTAAGGTGAAAAAGAAGATGACTCACGCTTTCTCCTGATCTGGCCACCAGGTGGCACTGACAAGCTGGGGCGACTTCGTTGTGGGCAGAGGCGGGACAGATAATTAGGCAGCCTT	-0.0784 ratio
ATGTGGGAACTAATTGAGGACCATGTTTACAATGCGTACAAATCATAAATCAATTAGTTCATATTGATTTACAAAAAGACAAGGAAGAATATTTGTTTACATTGATACTGTCCATGTAAACTTTTTTCAATTCAAAAGAAACACATAGTTCTGTCATAAAGTAGATTTTCTATCCCTTTTATTTTCTGAGCTT	0.5 ratio

Sample 3
Target: Interferon regulatory factor 5, full length, phosphomimetic (IRF5, Homo sapiens, UniProt Q13568-2, residues 1-514, S451D/S453D/S456D/S462D)
Technique: protein-binding microarray
Molecule type: double-stranded DNA, one strand shown
Medium: in vitro
Tested at: 940 nM top
Setting: 60-bp whole probe
Together with: salmon DNA 0.4 mg/ml
Reference: random background probes
Reading: higher = stronger binding
All sequences stand within: GCCTAGCAC … GTCTTGATTCGCTTGACGCTGCTG
Sequence	fitted relative affinity
GACGGTGTCGGGACTGGGGACGTGCTA	0.134 z-score
TTAGAACTGATTCTCGATTAGTGCTAG	2.16 z-score
CTCGTGGTCCTGCCCTGCCTGTGCTAG	-0.557 z-score
TCATTTCTTTACTTCACACTGTGCTAG	1.71 z-score
TTAGATTTCGGGGCTGGATTAGTGCTA	1.04 z-score
GACGGTTTCGGACTGGGAACGTGCTAG	6.24 z-score
TCAGCTACACATCTCACACTGTGCTAG	0.236 z-score
AGACACCCCTTTGGTGCCACGTGCTAG	-0.355 z-score
TTAGGTTTCGGACTGGGTCAGTGCTAG	6.71 z-score
AGTATGTTCCTTATTTAAGAGTGCTAG	0.438 z-score
GGCGATATCAGTATCGAGACGTGCTAG	2.66 z-score
GACGAACTGAGTCTCGTGACGTGCTAG	-0.166 z-score
GACGGTTTCGGTATCGGGACGTGCTAG	13.7 z-score
TTAGGTTTCGACTTTCGCTTAGTGCTA	8.58 z-score
CAGAATCTCTCATGTTACATTGTGCTA	0.802 z-score
TTAGAACTGGGGTTTCGAGTAGTGCTA	2.19 z-score
GACGGTATCGACACTAGGGACGTGCTA	3.62 z-score
GGTCTTCTGGACTGTTTGGTCGTGCTA	-0.0322 z-score
GACGGTTTCTGACTGGGGACGTGCTAG	1.7 z-score
GACGGACTGGACTTTCCGGACGTGCTA	-0.669 z-score
TCATTTCTCCTTTCGGAACTGTGCTAG	1.39 z-score
GTCGATTTCAGTTCCGAGACGTGCTAG	2.2 z-score
TCACAGTTGAGTTCTGTTACTGTGCTA	0.125 z-score
TTAGGACTGGGGATTCGGTTAGTGCTA	-0.11 z-score
GACGTTTCCAGTTTCGAGACGTGCTAG	4.26 z-score

Sample 4
Target: ABI1, truncated, D143A, DHFR fusion (Arabidopsis thaliana)
Technique: DHFR PCA, deep sequencing
Medium: yeast
Setting: methotrexate growth selection, single substitutions
Together with: (+)-ABA 710 µM
Reference: wild-type fitted maximum
Reading: higher = stronger binding
Starting sequence: PYL1, truncated, DHFR fusion (Arabidopsis thaliana); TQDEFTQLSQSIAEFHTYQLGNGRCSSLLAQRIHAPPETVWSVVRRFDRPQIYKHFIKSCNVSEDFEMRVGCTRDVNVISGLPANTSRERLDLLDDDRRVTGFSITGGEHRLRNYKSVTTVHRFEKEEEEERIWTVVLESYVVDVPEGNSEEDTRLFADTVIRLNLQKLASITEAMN; partner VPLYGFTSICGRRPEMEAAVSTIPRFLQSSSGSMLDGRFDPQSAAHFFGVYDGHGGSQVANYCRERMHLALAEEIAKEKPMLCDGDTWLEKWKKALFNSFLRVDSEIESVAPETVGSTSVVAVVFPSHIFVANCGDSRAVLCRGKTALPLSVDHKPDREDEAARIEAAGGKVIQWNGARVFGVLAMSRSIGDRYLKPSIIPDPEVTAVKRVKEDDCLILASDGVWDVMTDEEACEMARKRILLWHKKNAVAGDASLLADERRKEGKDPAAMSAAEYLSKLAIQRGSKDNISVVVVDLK
Substitution	relative binding score [%]
F15Y	97.4
L169I	60.2
S59P	33.8
D75A	101
I105G	31.9
S59Y	91.8
R46Q	105
H110M	60.6
S26W	96.1
R111E	66.7
A30W	99.7
I12R	91.9
T106Y	106
G108P	24.7
R45Q	72.4
T101N	58.9
R24F	89.2
K54L	-15.2
T1F	101
D95I	91.7

Sample 5
Target: CEP164, C-terminal peptide (human)
Technique: DHFR complementation, deep sequencing
Medium: yeast
Setting: single substitutions, model-inferred values
Reference: wild type
Reading: higher = weaker binding
Starting sequence: PDZK1, PDZ domain 2 (human); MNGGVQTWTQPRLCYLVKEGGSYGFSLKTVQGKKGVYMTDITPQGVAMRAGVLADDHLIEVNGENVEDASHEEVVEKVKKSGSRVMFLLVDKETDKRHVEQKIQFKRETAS; partner HNRVKVYRF
Substitution	binding free energy change
R97A	-0.103 kcal/mol
Y23I	1.3 kcal/mol
G3V	-0.0477 kcal/mol
L27T	0.472 kcal/mol
A50R	0.491 kcal/mol
L89I	0.509 kcal/mol
G4V	0.0431 kcal/mol
T9L	0.0902 kcal/mol
K33A	0.19 kcal/mol
Q10M	0.178 kcal/mol
W8K	-0.046 kcal/mol
A110N	-0.0455 kcal/mol
L27Y	0.807 kcal/mol
G32E	0.288 kcal/mol
Q101V	0.058 kcal/mol
E76Y	0.188 kcal/mol

Sample 6
Molecule: PhoQ, residues 284 288 289 292 302 303 SLCLSL
Technique: Sort-seq
Refers to: YFP reporter
Medium: E. coli
Setting: PhoQ-PhoP variant library
Together with: 10 µM Mg2+
Reference: high Mg2+ state
Reading: higher = stronger signaling
target	fold induction
PhoP, residues 12 14 15 18 19 VGHWL (Escherichia coli, UniProt P23836)	1.85
PhoP, residues 12 14 15 18 19 NFFVT (Escherichia coli, UniProt P23836)	0.205
PhoP, residues 12 14 15 18 19 LHHYF (Escherichia coli, UniProt P23836)	0.0388
PhoP, residues 12 14 15 18 19 TPWTL (Escherichia coli, UniProt P23836)	15.9
